Results pooled from the literature.
A part holds a random share of what one study measured. Substitutions count along the parent as printed.
Sequence of UniProt Q9ZPY6 (whole entry, looked up): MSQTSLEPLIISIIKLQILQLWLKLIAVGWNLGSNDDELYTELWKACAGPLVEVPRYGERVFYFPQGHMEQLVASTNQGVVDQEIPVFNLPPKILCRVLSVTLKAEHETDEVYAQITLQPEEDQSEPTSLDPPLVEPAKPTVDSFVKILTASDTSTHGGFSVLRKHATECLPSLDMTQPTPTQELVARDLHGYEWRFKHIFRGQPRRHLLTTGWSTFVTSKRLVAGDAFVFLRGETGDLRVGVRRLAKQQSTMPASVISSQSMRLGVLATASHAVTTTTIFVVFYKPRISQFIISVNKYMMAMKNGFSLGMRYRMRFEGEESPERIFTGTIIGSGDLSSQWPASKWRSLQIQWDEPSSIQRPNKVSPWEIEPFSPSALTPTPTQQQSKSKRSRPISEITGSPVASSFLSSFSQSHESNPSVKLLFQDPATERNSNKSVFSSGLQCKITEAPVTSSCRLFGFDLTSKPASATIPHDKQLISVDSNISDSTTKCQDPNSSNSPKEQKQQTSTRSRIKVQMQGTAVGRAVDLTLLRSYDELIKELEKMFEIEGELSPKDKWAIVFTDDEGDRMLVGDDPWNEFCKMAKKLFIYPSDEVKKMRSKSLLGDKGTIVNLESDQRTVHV
Sequence of UniProt Q9M1R4 (whole entry, looked up): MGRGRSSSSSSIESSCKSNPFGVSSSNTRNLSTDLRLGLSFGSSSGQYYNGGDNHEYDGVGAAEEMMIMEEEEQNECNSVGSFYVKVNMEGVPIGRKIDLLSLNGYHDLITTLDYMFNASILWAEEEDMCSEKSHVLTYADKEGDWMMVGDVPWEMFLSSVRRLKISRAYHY
Sequence of UniProt O23661 (whole entry, looked up): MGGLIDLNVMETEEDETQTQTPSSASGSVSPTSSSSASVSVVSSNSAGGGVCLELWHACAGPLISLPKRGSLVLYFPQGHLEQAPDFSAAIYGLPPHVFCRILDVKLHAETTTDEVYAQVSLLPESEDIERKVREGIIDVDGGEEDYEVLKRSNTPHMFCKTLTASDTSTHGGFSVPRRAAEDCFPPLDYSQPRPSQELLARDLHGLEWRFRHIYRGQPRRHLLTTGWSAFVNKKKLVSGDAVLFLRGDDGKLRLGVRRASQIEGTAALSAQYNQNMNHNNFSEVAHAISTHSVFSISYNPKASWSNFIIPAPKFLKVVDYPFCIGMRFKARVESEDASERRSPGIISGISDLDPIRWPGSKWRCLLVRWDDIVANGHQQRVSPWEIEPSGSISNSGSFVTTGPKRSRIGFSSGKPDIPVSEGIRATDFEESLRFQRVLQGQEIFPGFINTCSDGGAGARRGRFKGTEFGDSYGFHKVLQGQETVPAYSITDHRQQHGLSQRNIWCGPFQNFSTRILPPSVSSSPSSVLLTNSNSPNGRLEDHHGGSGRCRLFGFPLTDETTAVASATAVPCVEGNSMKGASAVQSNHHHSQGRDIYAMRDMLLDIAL
Sequence of UniProt Q9LQE8 (whole entry, looked up): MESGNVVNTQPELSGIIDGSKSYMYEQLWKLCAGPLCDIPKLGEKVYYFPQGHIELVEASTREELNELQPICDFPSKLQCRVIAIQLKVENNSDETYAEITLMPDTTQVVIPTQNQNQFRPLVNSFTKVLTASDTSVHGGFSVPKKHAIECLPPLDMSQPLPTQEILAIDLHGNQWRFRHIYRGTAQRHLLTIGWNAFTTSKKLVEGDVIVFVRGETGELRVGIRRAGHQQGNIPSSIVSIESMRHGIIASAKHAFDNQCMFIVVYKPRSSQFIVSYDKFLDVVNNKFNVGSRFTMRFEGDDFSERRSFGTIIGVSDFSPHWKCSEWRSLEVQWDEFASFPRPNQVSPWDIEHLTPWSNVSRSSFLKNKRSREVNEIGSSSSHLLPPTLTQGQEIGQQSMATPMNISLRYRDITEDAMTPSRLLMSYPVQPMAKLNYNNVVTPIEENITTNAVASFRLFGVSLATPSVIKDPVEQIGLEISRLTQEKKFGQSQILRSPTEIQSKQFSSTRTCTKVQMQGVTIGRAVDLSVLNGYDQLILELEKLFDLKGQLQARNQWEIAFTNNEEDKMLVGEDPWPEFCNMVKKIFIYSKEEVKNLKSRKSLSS

Set 1
Target: CCNB1, cyclin fold, Cln2 fusion (human)
Technique: yeast growth competition, sequencing
Medium: yeast
Setting: strong parent motif
Baseline: not given
Direction: higher = stronger binding
Starting sequence: BRCA2 docking peptide (human); PSIKRNLLNEFDR; partner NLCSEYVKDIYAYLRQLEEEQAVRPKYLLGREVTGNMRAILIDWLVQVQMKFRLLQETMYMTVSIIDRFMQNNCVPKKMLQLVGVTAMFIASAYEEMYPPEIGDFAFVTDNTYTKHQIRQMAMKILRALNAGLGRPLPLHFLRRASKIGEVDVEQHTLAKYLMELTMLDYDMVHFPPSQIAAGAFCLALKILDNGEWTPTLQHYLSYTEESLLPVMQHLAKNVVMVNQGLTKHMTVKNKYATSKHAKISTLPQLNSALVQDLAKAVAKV
Change | normalised enrichment score
QSIKRNLLNEFDR [P1Q] | 3.48
PSIKRNMLNEFDR [L7M] | 1.23
PSIWRNLLNEFDR [K4W] | 0.0274
PSIKRNLLNEFDM [R13M] | 2.81
PSIKRNRLNEFDR [L7R] | 0.328
PSIKTNLLNEFDR [R5T] | 0.453
PSIKRNDLNEFDR [L7D] | -0.0951
PSIKANALNEFDR [R5A L7A] | -0.142
PSIKRQLLNEFDR [N6Q] | 0.673
PSIKRNLRNEFDR [L8R] | -1.02
PSVKRNLLNEFDR [I3V] | 3.21
PSTKRNLLNEFDR [I3T] | 0.447
PSIKRNLLNEFPR [D12P] | 1.12
TSIKRNLLNEFDR [P1T] | 2.14
PSIKRNLLNEFDG [R13G] | 2.84
PSIKRNLLNENDR [F11N] | -1.02
PSIKRNLLEEFDR [N9E] | 2.31
KSIKRNLLNEFDR [P1K] | 2.15
PSIKGNLLNEFDR [R5G] | -0.116
PSIKRNLLNEMDR [F11M] | 0.524

Set 2
Target: ABI1, truncated, D143A, DHFR fusion (Arabidopsis thaliana)
Technique: DHFR PCA, deep sequencing
Medium: yeast
Setting: methotrexate growth selection, single substitutions
With: (+)-ABA 0.11 µM
Baseline: wild-type fitted maximum
Direction: higher = stronger binding
Starting sequence: PYL1, truncated, DHFR fusion (Arabidopsis thaliana); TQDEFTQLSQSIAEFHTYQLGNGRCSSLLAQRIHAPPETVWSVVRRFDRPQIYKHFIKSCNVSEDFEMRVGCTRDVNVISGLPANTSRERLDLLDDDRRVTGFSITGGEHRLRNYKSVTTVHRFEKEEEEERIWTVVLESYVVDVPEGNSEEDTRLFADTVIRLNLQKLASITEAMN
Change | relative binding score
T119I | 4.7%
D3H | 30.3%
E152H | 13.9%
V143I | 0.46%
I105T | -9.35%
H34W | 4.8%
Q7V | 30.4%
S63D | 36.3%
I33D | -0.855%
I33A | 3.11%
Q167Y | -0.445%
L166R | 6.81%
D96A | -5.97%
Y115L | -2.69%
E130R | 35.7%
S9W | 19.2%
D48F | 13.7%
L20D | 28.9%
D96N | 5.77%
L28A | 1.13%
F124A | 12.8%
V136A | 5.38%
E174I | -1.41%
S140P | 6.15%
I172W | -4.49%

Set 3
Sequence: B1 (IAA18)
Technique: two-hybrid
Baseline: out of 4 tests
Direction: higher = firmer interaction
B1: IAA18 (Arabidopsis thaliana, UniProt O24408); chain MEGYSRNGEISPKLLDLMIPQERRNWFHDEKNSVFKTEEKKLELKLGPPGEEDDDESMIRHMKKEPKDKSILSLAGKYFSPSSTKTTSHKRTAPGPVVGWPPVRSFRKNLASGSSSKLGNDSTTSNGVTLKNQKCDAAAKTTEPKRQGGMFVKINMYGVPIGRKVDLSAHNSYEQLSFTVDKLFRGLLAAQRDFPSSIEDEKPITGLLDGNGEYTLTYEDNEGDKMLVGDVPWQMFVSSVKRLRVIKTSEISSALTYGNGKQEKMRR
partner | setting | positive tests
ARF11 500-622 (Arabidopsis thaliana, UniProt Q9ZPY6) |  | 0
ARF14 497-605 (Arabidopsis thaliana, UniProt Q9LQE8) |  | 0
IAA30 (Arabidopsis thaliana, UniProt Q9M1R4) | weak activation fusion | 1
ETT (Arabidopsis thaliana, UniProt O23661) |  | 0

Set 4
Target: CDC34 UBC core domain (UniProt P49427)
Technique: yeast two-hybrid
Medium: yeast
Setting: mostly zero background
Baseline: not given
Direction: higher = stronger interaction
B2: RNF6 RING domain (UniProt Q9Y252); chain NSIDSELGKICSVCISDYVTGNKLRQLPCMHEFHIHCIDRWLSENCTCPICRQPVLGSNIAN
B3: RUFY1 RING domain (UniProt Q96T51); chain QALKGHAWLKDDEATHCRQCEKEFSISRRKHHCRNCGHIFCNTCSSNELALPSYPKPVRVCDSCHTLLLQRCSSTAS
B4: VPS8 RING domain (UniProt Q8N3P4); chain TRGLNPKQDYCSICLQQYKRRQEMADEIIVFSCGHLYHSFCLQNKECTVEFEGQTRWTCYKCSSSNKVGKLSE
B5: RNF186 RING domain (UniProt Q9NXI6); chain HSGSTECDLECLVCREPYSCPRLPKLLACQHAFCAICLKLLLCVQDNTWSITCPLCRKVTAVPGGLI
B6: CNOT4 RING domain (UniProt O95628); chain MSRSPDAKEDPVECPLCMEPLEIDDINFFPCTCGYQICRFCWHRIRTDENGLCPACRKPYPED
B7: RING1 RING domain (UniProt Q06587); chain SPRSLHSELMCPICLDMLKNTMTTKECLHRFCSDCIVTALRSGNKECPTCRKKLVSKRSLR
B8: MKRN3 RING domain (UniProt Q13064); chain FAVQRGMDKVCGICMEVVYEKANPNDRRFGILSNCNHSFCIRCIRRWRSARQFENRIVKSCPQCRVTSELVIPSE
B9: TRIM41 RING domain (UniProt Q8WV44); chain PVQTLQEEAVCAICLDYFTDPVSIGCGHNFCRVCVTQLWGGEDEEDRDELDREEEEEDGEEE
Residues (chain): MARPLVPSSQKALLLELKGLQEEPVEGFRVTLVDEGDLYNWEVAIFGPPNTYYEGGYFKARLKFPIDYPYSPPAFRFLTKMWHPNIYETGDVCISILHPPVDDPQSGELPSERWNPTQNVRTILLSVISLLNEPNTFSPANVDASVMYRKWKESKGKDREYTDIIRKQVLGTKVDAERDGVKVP
Sequence | lacZ reporter activity
B2 (RNF6 RING domain) | 0
B3 (RUFY1 RING domain) | 0
ASPKIFQKTKCSICNSALELPSVHFLCGHSFHQHCFESYSESDADCPTCLPENRKVMDMI (VPS11 RING domain (UniProt Q9H270)) | 0
B4 (VPS8 RING domain) | 0
B5 (RNF186 RING domain) | 0
LEALSSDFLACKICLEQLRAPKTLPCLHTYCQDCLAQLADGGRVRCPECRETVPVPPEGV (TRIM56 RING domain (UniProt Q9BRZ2)) | 0
B6 (CNOT4 RING domain) | 0
B7 (RING1 RING domain) | 0
B8 (MKRN3 RING domain) | 0
B9 (TRIM41 RING domain) | 0

Set 5
Target: BATF, bZIP domain (human)
Technique: DHFR protein complementation
Medium: yeast
Setting: single substitutions, most at no-binding floor
Baseline: wild-type JUN-FOS pair
Direction: higher = stronger binding
Starting sequence: JUN, bZIP domain (human); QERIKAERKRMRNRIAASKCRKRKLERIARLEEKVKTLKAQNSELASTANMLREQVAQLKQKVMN; partner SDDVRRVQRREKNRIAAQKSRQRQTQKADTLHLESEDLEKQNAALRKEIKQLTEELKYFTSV
Change | binding fitness
K34L | 0.00802 natural log
Q41H | -0.162 natural log
K39M | -0.305 natural log
S43Q | 0.0873 natural log
K34Q | -0.122 natural log
V56D | -1.46 natural log
K36N | -0.00384 natural log
Q55N | -0.232 natural log
A29Q | -0.107 natural log
M51V | -0.0116 natural log
M51D | 0.0509 natural log
A46N | 0.0575 natural log
K39A | -0.265 natural log
K36S | 0.000646 natural log
A49C | -0.0293 natural log
N42Y | -0.175 natural log
I28K | -0.0574 natural log
L52A | -1.16 natural log
K34T | -0.0434 natural log
